Assay results gathered from unrelated publications.
Protocols differ between the studies behind these lines. Several values in a cell are separate wells, animals, samples, runs or records. ± gives the spread as reported.

With CC[C@H](C)[C@@H]1NC(=O)[C@@](C)(NC(=O)[C@H](CCCNC(=N)N)NC(=O)[C@H](CC(C)C)NC(=O)[C@@H](NC(=O)[C@H](CCC(N)=O)NC(=O)[C@H](CC(C)C)NC(C)=O)[C@@H](C)O)CCCC=CCCC[C@@](C)(C(=O)N[C@@H](CC(C)C)C(=O)N[C@@H](Cc2ccc3ccccc3c2)C(N)=O)NC(=O)[C@H](CCCNC(=N)N)NC(=O)[C@H](CCC(N)=O)NC1=O the remaining compound was 100% (LC-MS; BALB/c nude mouse, plasma; 0 min).
COCc1cc(C(=O)Nc2cc([C@H]3CC[C@@H](OC(=O)NC(C)C)C3)[nH]n2)n(C)n1 has an AUC(0-24h) of 3.53 µM·h (OVCAR-3 xenograft, NOD/SCID gamma mice, plasma; oral, 25 twice daily, tumour growth inhibition study).
C=CCN1CC(=O)N2[C@@H](Cc3ccc(O)cc3F)C(=O)N(Cc3cccc(N4CC(N5CCN(CC)CC5)C4)n3)C[C@@H]2N1C(=O)NCc1ccccc1: “treatment-related ALT increased” 0% (advanced solid tumour patients; oral, 120 mg twice daily, grade ≥3, dose-escalation).
Under “amount excreted in urine (0-48 h)”, CN[C@@H]1COc2c(S(=O)(=O)NC(=O)Nc3c4c(cc5c3CCC5)CCC4)cnn2C1 is recorded as 24.3 mg (human, urine; oral, 150 mg, 0-48 h).
For CCc1cc(C(=O)NC)c2nccc(N3CCc4c(cc(Cn5ccnc5)cc4-c4cn(C)nc4C(F)(F)F)C3=O)c2c1, “blood Baso change” read -29.4% (Sprague Dawley rats; oral, 100 mg/kg twice daily, 7 days; baseline: vehicle).
COc1cc(C(=O)N2CCC3(CC2)CC(=O)c2c(cnn2C(C)C)C3)cc(-c2ccc(C(=O)O)cc2)n1: “placebo-adjusted change from baseline” -9.5% (item: total cholesterol; human, fasting serum; 100 mg every 12 h, day 13, adjusted geometric mean; baseline: baseline and placebo).
For O=C(Nc1nc2cccc(-c3ccc(CN4CCS(=O)(=O)CC4)cc3)n2n1)C1CC1, “treatment-emergent adverse events” read 0% (item: joint swelling; human rheumatoid arthritis patients; oral, 75 mg once daily, 4 weeks, regardless of relatedness).
With CN1C(=O)[C@@H](NC(=O)c2nnc(Cc3ccccc3)[nH]2)COc2cccnc21 the Tmax was 3 h (healthy human, fasted, plasma; oral, 10 mg single dose, median).
For Cc1cc(Nc2cc3ncccc3c(N[C@@H]3C[C@H]4CC[C@@H](C3)N4CCC#N)n2)n[nH]1, “subjects with epistaxis” read 0% (healthy human; oral, 100 mg multiple doses, 14 days).
c1ccc2c(c1)ccc1c3ccccc3ccc21: “literature range of log K” 4.68 to 5.63 log units (PDMS-water partitioning; PAH compilation).
Cc1ccc(Sc2ccccc2N2CCNCC2)c(C)c1 — result for “adverse event incidence”: 0% (TEAE vomiting; healthy adult men; oral, 10 mg single dose, 8 nights, fasted).
For C[C@H]1Oc2cc(cnc2N)-c2c(nn(C)c2C#N)CN(C)C(=O)c2ccc(F)cc21, “free plasma concentration” read 1400 nM (Balb/c nude mouse female, plasma; 5 mg/kg twice daily for 5 days, 1 h).
With COc1cccc(OC)c1-c1cc(C(=O)NC2(C(=O)O)C3CC4CC(C3)CC2C4)nn1-c1ccc(C(=O)N(C)CCCN(C)CCCN(C)C(=O)CN2CCN(CC(=O)[O-])CCN(CC(=O)[O-])CCN(CC(=O)[O-])CC2)cc1C(C)C.[177Lu+3] (stereo not drawn) the tissue uptake was 0.81 %ID/g (mouse, HT-29 xenograft, kidney; 24 h post injection).
The accuracy of O=C(Cc1ccc2ccccc2c1)Nc1cc(C2CCC2)[nH]n1 is reported as 99.6% (mouse plasma; 375 ng/mL, 40 days, -80 °C, long-term storage stability).
CCN1/C(=C/C(C)=O)Sc2ccc(F)cc21 — result for “mean blood pressure change”: 99.5 ± 4.2% (cynomolgus monkey; oral, 30 mg/kg, 4 h post-dose; baseline: pre-dose).
COc1ccc2c(=O)n(C)c(-c3ccccc3)nc2c1 has a tissue concentration of 50900 ng/g (male Sprague-Dawley rat, small intestine; oral, 30 mg/kg, 2 h).
The accuracy of CC(C)[C@H](C(=O)Nc1ccc(C(=O)NO)cc1)c1ccccc1 is reported as 101% (whole blood; 10.0 ng/mL, 0 h, 4 °C, stability on ice).
For Cn1cc(-c2ccc(S(=O)(=O)[C@@H]3C[C@@H](C(=O)NC4(C#N)CC4)N(C(=O)C4(C(F)(F)F)CC4)C3)c(C(F)(F)F)c2)cn1, the t_half was 606 min (noncompartmental analysis; human, plasma; oral, 200 mg, day 1, with food, geometric mean).
With CNC(=O)c1cc(Oc2ccc(NC(=O)Nc3ccc(Cl)c(C(F)(F)F)c3)c(F)c2)cc[n+]1[O-] the accuracy was 100% (long-term stability; mouse plasma; 75 ng/mL, 6 months, -80 °C).
Under “entropy of phase change”, C[Si](C)(C)O[Si](C)(C)C is recorded as 0.164 kJ/(mol·K) (1-octanol/water; concentration not given).
NC1(C(=O)N[C@@H](CCO)c2ccc(Cl)cc2)CCN(c2nc[nH]c3nccc2-3)CC1: “incidence of Fatigue” 0% (metastatic CRPC patients; 320 mg b.i.d., any grade, treatment-related, added: enzalutamide 160 mg daily).
Under “minimum ACTH level”, N#Cc1ccc2c(c1)[C@H]1CCCN(C(=O)c3ccc4[nH]cnc4c3)[C@H]1C2 is recorded as 1.9 pmol/L (human; 240 mg, day 7).
C[C@@H](N)C1CCN(S(=O)(=O)c2cccc3cnccc23)CC1: “participants with hypotension” 0% (healthy volunteers; 25 mg, fasted).
With CC(C)n1c(C2CCNCC2)nc2c([N+](=O)[O-])c(Br)c(Br)cc21 the renal clearance was 12.3 mL/min (human; oral, 125 mg single dose, median).
With COC(=O)C1=CO[C@@H](O[C@@H]2O[C@H](CO)[C@@H](O)[C@H](O)[C@H]2O)[C@@H]2C(CO)=CC[C@H]12 the accuracy was 89.9% (three freeze-thaw cycles; rat plasma; 200 ng/mL, -70 °C freeze).
CC(C)(C(=O)N1CCOc2c(C#N)cncc2C1)C(F)F — result for “subjects with keratitis TEAE”: 16.7% (human, both sexes; oral, 30 mg single dose).
With CN(C(=O)n1cnc(-c2ccc[n+]([O-])c2)c1)[C@H]1CC[C@H](O)CC1 the concentration was 10.3 ± 0.4 ng/g (Wistar rat, pons; oral, 10 mg/kg of BIA 10-2474, 4 h, single dose).
O=C(O)CCC(=O)O.[2H]C([2H])([2H])Oc1cc(C)c2[nH]ccc2c1CN1CC[C@@H](C2CC2)C[C@H]1c1ccc(C(=O)O)cc1: “subjects with elevated LDL TEAE” 0% (multiple ascending dose; healthy Chinese subjects; 300 mg once daily).
For CC[C@H](C)[C@H](NC(=O)CN)C(=O)N[C@@H](CC(C)C)C(=O)N[C@@H](CC(=O)O)C(=O)N[C@@H](C)C(=O)N[C@H](C(=O)N[C@@H](CCCCN)C(=O)N[C@@H](C)C(=O)N[C@H](C(=O)N[C@@H](C)C(N)=O)[C@@H](C)CC)[C@@H](C)CC, the helix content was 5% (circular dichroism; 10 mM SDS; 100 µM).
For c1ccc2c(c1)-c1cccc3c1c-2cc1ccccc13, “literature range factor” read 7 (PDMS-water partitioning; PAH compilation; baseline: maximum over minimum K).
Cc1cc(NC2CCN(C(=O)OC3CCN(C(=O)/C=C/CN(C)C)C3)CC2)n2ncc(C(C)C)c2n1 (stereo not drawn): “patients with adverse event” 0% (Phase I dose escalation CTCAE v4.0, item: abdominal distension; patients with advanced solid tumours; dose not given, QD dosing grade 3 or higher).
With C=C[C@@](C)(/C=C/c1ccc(O)cc1)CCC=C(C)C the accuracy was 98.1% (three freeze-thaw cycles; rat plasma; 8 ng/mL, -70 °C freeze).
Cn1nc2c(=O)n(C3CC3)cnc2c1[C@](O)(c1cnc(C(F)(F)F)c(Cl)c1)C(F)(F)F gave a fraction unbound of 0.08 (mouse, plasma).
The Vss/F of CCN1CCN(Cc2ccc(Nc3ncc(F)c(-c4cc(F)c5nc(C)n(C(C)C)c5c4)n3)nc2)CC1 is reported as 1830 L (healthy human, fasted, plasma; oral, 200 mg, 2 x 100 mg capsules).
CC(C)(Sc1ccncc1-c1ccc(C#N)c2ccccc12)C(=O)O — result for “amount excreted in urine (0-24 h)”: 34.1 µg (human, urine; oral, 2.5 mg, added: febuxostat 20 mg).
For O=C(c1nc2n(n1)[C@H](c1ccccc1)C[C@@H]2F)C1CC1, the renal clearance was 0.178 mL/min (human; 150 mg single dose, mean).
CCCCC[C@H](O)CC[C@@H]1[C@H]2Cc3cccc(OCC(=O)O)c3C[C@H]2C[C@H]1O: “geometric mean AUC(0-last)” 0.84 ng·h/mL (LC-MS/MS; male Japanese PAH patients, plasma; inhaled, 54 µg).
For N[C@@H](CC(=O)N1CCn2c(nnc2C(F)(F)F)C1)Cc1cc(F)c(F)cc1F, “AUC(0-2) divided by body mass index” read 20.3 ± 5.34 ng·h/mL (human, female, plasma; oral, 100 mg single dose).
With OCC1=C[C@@H](O)[C@@H]2C=CO[C@@H](O[C@@H]3O[C@H](CO)[C@@H](O)[C@H](O)[C@H]3O)[C@H]12 the accuracy was 96.6% (three freeze-thaw cycles; rat plasma; 200 ng/mL, -70 °C freeze).
Under “participants with TEAEs”, C[C@H]1CN(C(=O)CC#N)[C@]12CCN(c1ncnc3[nH]ccc13)C2 is recorded as 25% (healthy adult humans; oral, 1.5 mg single dose).
With O=c1c2ccccc2oc2ccccc12 the solubility was 0.0516 mole fraction (tricaprin-tricaprylin mixture; 45 °C, tricaprin fraction 0.17).
Cc1cc(-c2nccc3c2ccn3CC(=O)Nc2ccc(-c3cnccn3)cn2)ccn1: “subjects with serious TEAE” 0% (human; 15 mg once daily, multiple ascending dose).
With Cc1cc([C@H]2C[C@H]3[C@@H](C)SC(N)=N[C@@]3(c3ccc(F)cc3F)CO2)on1 the brain concentration was 437 nM (male 129/SVE mouse, brain; subcutaneous, 50 mg/kg, 7 h).
For O=C(O)CSc1nnc(Br)n1-c1ccc(C2CC2)c2ccccc12, the body weight was 29 g and 34 g and 38 g and 31.2 g and 35 g and 34.4 g (KM mouse, chronic hyperuricaemia model; dose not given, day 17).
For CNCCOC12CC3(C)CC(C)(CC(Cn4ncc(-c5ccc(N6CCc7cccc(C(=O)Nc8nc9ccccc9s8)c7C6)nc5C(=O)O)c4C)(C3)C1)C2, “cardiac output change” read -41% (anaesthetised male beagle dogs; intravenous bolus, 0.03 mg/kg, 105 min; baseline: baseline).
The AUC of O=C(COc1ccc(Cl)cc1)NC12CC(c3nnc([C@H]4C[C@@H](OC(F)(F)F)C4)o3)(C1)C2 is reported as 88.6 µM·h (healthy human volunteers fasted, plasma; oral, 100 mg single dose, arithmetic mean).
With Cc1nc2cccc(OCC(C)(C)C(=O)NC(C)C)c2c(N)c1C(=O)O the PCE/NCE ratio was 0.87 (male Swiss albino CD-1 mouse, bone marrow; oral, 500 mg/kg, 48 h).
Under “heart rate change”, Cc1c(-c2ccc(N3CCc4cccc(C(=O)Nc5nc6ccccc6s5)c4C3)nc2C(=O)O)cnn1CC12CC3(C)CC(C)(C1)CC(OCCNCC[C@H](O)CO)(C3)C2 is recorded as -10% (beagle dog, male, anaesthetised; intravenous infusion, 0.3 mg/kg/min, 75 (unit not given); baseline: vehicle).
The AUC ratio of COc1ccc2nc([S@@+]([O-])Cc3ncc(C)c(OC)c3C)[nH]c2c1 is reported as 3 (human, dried blood spots; 10 mg omeprazole, median, added: fluvoxamine; baseline: with fluvoxamine over alone).
For CO[C@H]1C[C@@H]2CC[C@@H](C)[C@@](O)(O2)C(=O)C(=O)N2CCCC[C@H]2C(=O)O[C@H]([C@H](C)C[C@@H]2CC[C@@H](OC(=O)NCCOCCOCCOCCOCCOCCOCCOCCOCCC(=O)N3CCc4cc(Cn5nc(-c6ccc7oc(N)nc7c6)c6c(N)ncnc65)ccc4C3)[C@H](OC)C2)C[C@@H](O)[C@H](C)/C=C(\C)[C@@H](O)[C@@H](OC)C(=O)[C@H](C)C[C@H](C)/C=C/C=C/C=C/1C, the Cmax was 505 ng/mL (human patients, plasma; intravenous, 10 mg, cycle 1 day 15, weekly dosing, 1 h infusion, arithmetic mean).
Under “patients with adverse event”, CNC(=O)c1ccc(-c2cnc3ncc(Cc4ccc5ncccc5c4)n3n2)cc1F is recorded as 0% (item: Headache; cancer patients; oral, 600 mg twice daily, all expansion cohorts, grade 3-4).
